Results of several laboratories.
Numbered parts are unrelated; each lists some results of a single study.
UniProt P51956, sequence (whole entry, looked up): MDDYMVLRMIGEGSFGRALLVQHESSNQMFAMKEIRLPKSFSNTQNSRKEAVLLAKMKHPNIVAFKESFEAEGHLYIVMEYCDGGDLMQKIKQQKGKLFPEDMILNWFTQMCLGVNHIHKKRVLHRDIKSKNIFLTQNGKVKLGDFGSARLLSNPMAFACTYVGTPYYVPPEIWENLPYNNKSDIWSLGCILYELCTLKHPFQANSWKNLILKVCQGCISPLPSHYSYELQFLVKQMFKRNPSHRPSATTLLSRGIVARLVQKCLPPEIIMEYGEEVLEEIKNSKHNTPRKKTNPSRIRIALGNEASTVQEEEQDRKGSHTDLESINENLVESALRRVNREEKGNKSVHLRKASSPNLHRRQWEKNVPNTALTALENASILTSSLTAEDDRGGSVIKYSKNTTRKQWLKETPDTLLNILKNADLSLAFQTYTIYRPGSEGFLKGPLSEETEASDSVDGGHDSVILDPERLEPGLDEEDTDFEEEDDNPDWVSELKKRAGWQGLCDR
UniProt Q86UE8, sequence (whole entry, looked up): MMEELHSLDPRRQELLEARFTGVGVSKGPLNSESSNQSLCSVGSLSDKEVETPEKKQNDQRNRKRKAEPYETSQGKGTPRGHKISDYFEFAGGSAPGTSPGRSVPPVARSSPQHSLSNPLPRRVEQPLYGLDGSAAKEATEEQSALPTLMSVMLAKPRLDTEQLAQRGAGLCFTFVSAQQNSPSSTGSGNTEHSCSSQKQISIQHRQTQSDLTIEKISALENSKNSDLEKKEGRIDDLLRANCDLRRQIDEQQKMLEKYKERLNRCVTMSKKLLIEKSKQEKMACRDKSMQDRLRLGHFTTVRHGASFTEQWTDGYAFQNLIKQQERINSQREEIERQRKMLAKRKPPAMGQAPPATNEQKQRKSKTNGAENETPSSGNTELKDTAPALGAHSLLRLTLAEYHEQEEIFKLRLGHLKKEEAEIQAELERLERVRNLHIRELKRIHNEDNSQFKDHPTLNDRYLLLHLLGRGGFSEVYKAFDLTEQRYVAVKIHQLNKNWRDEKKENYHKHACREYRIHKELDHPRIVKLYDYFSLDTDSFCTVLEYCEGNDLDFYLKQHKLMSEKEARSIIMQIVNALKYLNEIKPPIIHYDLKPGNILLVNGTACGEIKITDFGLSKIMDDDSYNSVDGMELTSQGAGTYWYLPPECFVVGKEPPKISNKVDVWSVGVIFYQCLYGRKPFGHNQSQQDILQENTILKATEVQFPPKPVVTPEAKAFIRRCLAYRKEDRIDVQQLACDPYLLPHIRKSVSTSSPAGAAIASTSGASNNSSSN
UniProt Q9BQI3, sequence (whole entry, looked up): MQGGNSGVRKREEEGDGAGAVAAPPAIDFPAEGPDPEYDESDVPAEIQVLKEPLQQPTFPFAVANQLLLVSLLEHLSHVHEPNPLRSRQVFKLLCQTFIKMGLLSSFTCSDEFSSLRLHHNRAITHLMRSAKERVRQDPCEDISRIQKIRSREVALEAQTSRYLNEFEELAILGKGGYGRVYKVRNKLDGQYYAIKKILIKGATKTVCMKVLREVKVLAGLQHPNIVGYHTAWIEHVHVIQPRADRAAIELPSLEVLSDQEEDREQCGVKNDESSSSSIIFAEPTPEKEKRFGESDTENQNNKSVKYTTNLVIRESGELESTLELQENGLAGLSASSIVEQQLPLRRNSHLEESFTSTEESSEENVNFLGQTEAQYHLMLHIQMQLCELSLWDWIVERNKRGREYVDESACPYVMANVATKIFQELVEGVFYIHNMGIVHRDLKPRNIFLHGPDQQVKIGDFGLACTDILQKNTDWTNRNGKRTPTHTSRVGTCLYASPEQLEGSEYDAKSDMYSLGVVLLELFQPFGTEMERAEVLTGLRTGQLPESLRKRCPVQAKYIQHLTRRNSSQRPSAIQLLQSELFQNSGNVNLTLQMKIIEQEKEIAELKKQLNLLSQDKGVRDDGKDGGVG
UniProt Q13237, sequence (whole entry, looked up): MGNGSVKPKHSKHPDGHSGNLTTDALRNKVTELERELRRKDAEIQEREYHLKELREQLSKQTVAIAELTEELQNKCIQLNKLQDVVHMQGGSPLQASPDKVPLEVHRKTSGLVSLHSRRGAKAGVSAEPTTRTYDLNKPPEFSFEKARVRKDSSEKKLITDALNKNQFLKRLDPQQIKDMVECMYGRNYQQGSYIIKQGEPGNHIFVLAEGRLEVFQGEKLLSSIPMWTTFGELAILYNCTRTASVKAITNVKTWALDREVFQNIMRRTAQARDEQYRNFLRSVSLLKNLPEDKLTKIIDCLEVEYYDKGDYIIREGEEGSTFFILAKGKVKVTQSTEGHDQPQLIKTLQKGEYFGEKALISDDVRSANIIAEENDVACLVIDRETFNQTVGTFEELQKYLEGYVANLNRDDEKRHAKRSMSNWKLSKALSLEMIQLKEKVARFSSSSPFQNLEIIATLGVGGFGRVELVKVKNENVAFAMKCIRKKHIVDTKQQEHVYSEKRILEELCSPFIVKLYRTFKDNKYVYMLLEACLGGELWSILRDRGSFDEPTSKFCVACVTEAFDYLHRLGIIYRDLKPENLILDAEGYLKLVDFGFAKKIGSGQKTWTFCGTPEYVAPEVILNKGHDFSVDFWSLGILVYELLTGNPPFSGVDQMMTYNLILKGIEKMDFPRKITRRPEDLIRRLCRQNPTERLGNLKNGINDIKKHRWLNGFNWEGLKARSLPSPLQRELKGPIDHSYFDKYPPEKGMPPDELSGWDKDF
UniProt P42681, sequence (whole entry, looked up): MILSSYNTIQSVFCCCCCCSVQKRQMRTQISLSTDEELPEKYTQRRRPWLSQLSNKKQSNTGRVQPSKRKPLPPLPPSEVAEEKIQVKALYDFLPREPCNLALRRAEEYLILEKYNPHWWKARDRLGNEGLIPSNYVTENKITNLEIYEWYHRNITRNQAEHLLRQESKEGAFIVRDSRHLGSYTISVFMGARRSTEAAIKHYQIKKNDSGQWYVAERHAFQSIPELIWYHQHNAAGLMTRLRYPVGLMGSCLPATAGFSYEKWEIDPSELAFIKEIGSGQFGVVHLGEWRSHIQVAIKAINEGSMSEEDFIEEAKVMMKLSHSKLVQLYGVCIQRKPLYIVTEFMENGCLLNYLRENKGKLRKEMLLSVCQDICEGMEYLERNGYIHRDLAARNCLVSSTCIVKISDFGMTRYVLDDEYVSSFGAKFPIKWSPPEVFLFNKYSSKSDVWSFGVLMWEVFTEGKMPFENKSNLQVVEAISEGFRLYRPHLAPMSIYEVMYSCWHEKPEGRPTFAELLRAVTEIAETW
UniProt Q16566, sequence (whole entry, looked up): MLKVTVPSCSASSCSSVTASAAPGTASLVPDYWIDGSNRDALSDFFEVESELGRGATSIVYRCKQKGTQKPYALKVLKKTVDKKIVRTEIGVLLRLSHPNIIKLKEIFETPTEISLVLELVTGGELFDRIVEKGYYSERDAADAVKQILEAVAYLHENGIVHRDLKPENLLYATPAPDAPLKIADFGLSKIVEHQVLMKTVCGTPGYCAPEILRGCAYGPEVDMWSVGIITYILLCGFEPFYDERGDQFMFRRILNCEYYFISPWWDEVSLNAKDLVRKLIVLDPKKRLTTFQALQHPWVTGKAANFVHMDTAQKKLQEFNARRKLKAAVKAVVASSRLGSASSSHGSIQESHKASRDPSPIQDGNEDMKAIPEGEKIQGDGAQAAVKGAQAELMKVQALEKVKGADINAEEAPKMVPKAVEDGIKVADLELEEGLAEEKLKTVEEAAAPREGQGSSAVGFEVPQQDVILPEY
UniProt Q9H0K1, sequence (whole entry, looked up): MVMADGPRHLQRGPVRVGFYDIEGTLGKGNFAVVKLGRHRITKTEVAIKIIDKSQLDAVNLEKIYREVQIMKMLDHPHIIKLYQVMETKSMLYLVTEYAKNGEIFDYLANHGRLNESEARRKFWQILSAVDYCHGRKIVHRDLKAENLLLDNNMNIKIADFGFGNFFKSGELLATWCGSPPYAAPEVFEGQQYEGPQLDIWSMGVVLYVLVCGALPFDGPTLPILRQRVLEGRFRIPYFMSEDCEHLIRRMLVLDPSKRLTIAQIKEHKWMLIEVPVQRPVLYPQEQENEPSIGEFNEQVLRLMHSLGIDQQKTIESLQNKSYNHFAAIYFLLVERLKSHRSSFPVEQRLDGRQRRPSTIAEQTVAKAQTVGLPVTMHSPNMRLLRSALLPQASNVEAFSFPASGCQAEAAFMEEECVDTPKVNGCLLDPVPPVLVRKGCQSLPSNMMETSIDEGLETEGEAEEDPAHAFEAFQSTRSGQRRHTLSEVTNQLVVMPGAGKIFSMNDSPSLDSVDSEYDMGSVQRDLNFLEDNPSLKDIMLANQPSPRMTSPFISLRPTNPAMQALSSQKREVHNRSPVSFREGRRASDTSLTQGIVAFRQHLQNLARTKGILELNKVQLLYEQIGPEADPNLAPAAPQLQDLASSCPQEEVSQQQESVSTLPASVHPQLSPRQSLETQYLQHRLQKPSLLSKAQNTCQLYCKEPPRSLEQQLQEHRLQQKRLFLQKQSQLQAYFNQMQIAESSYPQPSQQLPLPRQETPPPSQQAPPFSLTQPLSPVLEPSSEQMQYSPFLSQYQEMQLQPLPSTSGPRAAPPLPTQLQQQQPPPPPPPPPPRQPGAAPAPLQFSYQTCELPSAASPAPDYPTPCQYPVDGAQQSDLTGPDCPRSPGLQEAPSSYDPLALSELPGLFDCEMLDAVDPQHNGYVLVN
UniProt Q9BXA7, sequence (whole entry, looked up): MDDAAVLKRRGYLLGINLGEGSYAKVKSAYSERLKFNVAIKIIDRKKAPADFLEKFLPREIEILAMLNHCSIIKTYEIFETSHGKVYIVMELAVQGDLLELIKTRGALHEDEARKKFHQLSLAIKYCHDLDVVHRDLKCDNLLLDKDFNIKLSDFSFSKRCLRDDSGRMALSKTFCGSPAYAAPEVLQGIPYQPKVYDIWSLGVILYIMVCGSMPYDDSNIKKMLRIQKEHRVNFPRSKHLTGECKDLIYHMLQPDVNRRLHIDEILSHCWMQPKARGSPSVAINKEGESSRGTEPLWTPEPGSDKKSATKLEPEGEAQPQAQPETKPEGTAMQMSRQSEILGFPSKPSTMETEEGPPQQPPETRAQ

Sample 1
SMILES: O=C(Nc1ccccc1)Nc1cccc(Oc2ccc3nccn3n2)c1
Concentration: 1 µM
Endpoint: remaining binding
target = NEK3 (Homo sapiens, UniProt P51956); technique = competitive binding panel; baseline = vehicle; value = 92%
target = GAK (Homo sapiens, UniProt O14976); technique = competitive binding panel; baseline = vehicle; value = 100%
target = CAMK1D (Homo sapiens, UniProt Q8IU85); technique = competitive binding panel; baseline = vehicle; value = 97%
target = YES1 (Homo sapiens, UniProt P07947); technique = competitive binding; setting = YES; value = 100%
target = TNIK (Homo sapiens, UniProt Q9UKE5); technique = competitive binding panel; baseline = vehicle; value = 93%
target = TLK2 (Homo sapiens, UniProt Q86UE8); technique = competitive binding panel; baseline = vehicle; value = 100%
target = PIK3CA (Homo sapiens, UniProt P42336, E545K); technique = competitive binding panel; baseline = vehicle; value = 99%
target = EPHB3 (Homo sapiens, UniProt P54753); technique = competitive binding panel; baseline = vehicle; value = 100%
target = OXSR1 (Homo sapiens, UniProt O95747); technique = competitive binding panel; refers to = OSR1; baseline = vehicle; value = 100%
target = MAPK6 (Homo sapiens, UniProt Q16659); technique = competitive binding panel; refers to = ERK3; baseline = vehicle; value = 100%
target = IGF1R (Homo sapiens, UniProt P08069); technique = competitive binding panel; baseline = vehicle; value = 100%

Sample 2
SMILES: COc1cc(C(=O)N2CCC(N3CCN(C)CC3)CC2)ccc1Nc1ncc2c(n1)N(C)c1ccccc1C(=O)N2C
Endpoint: inhibition
tested on = mouse PFTAIRE1; test = probe labelling, KiNativ ATP probe; test system = mouse brain lysate; conditions = 0.1 µM, LYS1 site LVALkVIR; value = -4.2%
tested on = CSK (human); test = probe labelling, KiNativ ADP probe; test system = human PBMC lysate; conditions = concentration not given, LYS1 labelled site; value = 3.9%
tested on = TBK1 mouse; test = KiNativ profiling; test system = mouse brain lysate; conditions = 1 µM, LYS1 site, added: ADP acyl phosphate probe; value = 19.2%
tested on = WNK1, WNK2 and WNK4 (human); test = probe labelling, KiNativ, refers to: IGDLGLATLkR peptide, activation loop; test system = PBMC lysate (human); conditions = 1 µM, added: ATP acyl-phosphate probe; value = 4.6%
tested on = SLK mouse; test = KiNativ profiling; test system = mouse brain lysate; conditions = 1 µM, LYS2 site, added: ATP acyl phosphate probe; value = 16%
tested on = AMPKa1 and AMPKa2 (mouse); test = probe labelling, KiNativ, refers to: VAVkILNR peptide, Lys1 site; test system = brain tissue lysate (mouse); conditions = 0.1 µM, added: ADP acyl-phosphate probe; value = 3.5%
test = inhibitor, KiNativ profiling, refers to: peptide VLGTGAYGkVFLVR; test system = human PBMC lysate; conditions = concentration not given, ATP loop site, added: ATP acyl-phosphate probe; value = 2.4%

Sample 3
SMILES: C[C@@H]1CN(c2cc(-c3n[nH]c4ccc(OC5(C)CC5)cc34)ncn2)C[C@H](C)O1
Effect on: cell-free assay
Technique: competition with immobilised ligand
Concentration: 0.1 µM
Endpoint: remaining binding
target = EIF2AK2 (Homo sapiens, UniProt P19525); value = 100%
target = Insulin receptor (INSR, Homo sapiens, UniProt P06213); value = 100%
target = SIK2 (Homo sapiens, UniProt Q9H0K1); value = 87%
target = MAP3K15 (Homo sapiens, UniProt Q6ZN16); value = 67%
target = AXL (Homo sapiens, UniProt P30530); value = 100%
target = Tyrosine-protein kinase ABL1, phosphorylated (ABL1, Homo sapiens, UniProt P00519, H396P); value = 71%
target = EIF2AK1 (Homo sapiens, UniProt Q9BQI3); value = 100%
target = SBK3 (Homo sapiens, UniProt P0C264); value = 100%
target = TSSK1B (Homo sapiens, UniProt Q9BXA7); value = 72%
target = EGFR (Homo sapiens, UniProt P00533); value = 76%

Sample 4
Compound: O=C1c2ccccc2-c2nc3nnnn3nc21
Effect on: enzyme activity
Mode: inhibitor
Concentration: 0.5 µM
Baseline: control
Endpoint: remaining activity
target = PRKG2 (Homo sapiens, UniProt Q13237); value = 140%
target = MAPK1 (Homo sapiens, UniProt P28482); value = 87.5%
target = DCLK2 (Homo sapiens, UniProt Q8N568); value = 86.5%
target = TLK2 (Homo sapiens, UniProt Q86UE8); value = 100%
target = KDR (Homo sapiens, UniProt P35968); value = 1.95%
target = MINK1 (Homo sapiens, UniProt Q8N4C8); value = 91.2%
target = Cyclin-dependent kinase 9, with cyclin K (CDK9, Homo sapiens, UniProt P50750); value = 74.4%
target = TXK (Homo sapiens, UniProt P42681); value = 90.8%
target = MAPK14 (Homo sapiens, UniProt Q16539); value = 88.6%
target = NEK3 (Homo sapiens, UniProt P51956); value = 111%
target = MAPK11 (Homo sapiens, UniProt Q15759); value = 101%
target = MAP2K1 (Homo sapiens, UniProt Q02750); value = 88.7%
target = CAMK4 (Homo sapiens, UniProt Q16566); value = 85.4%
target = MARK4 (Homo sapiens, UniProt Q96L34); value = 88.1%
target = ROCK1 (Homo sapiens, UniProt Q13464); value = 94.5%

A few entries again (sample 2):
tested on = TBK1 mouse; test = KiNativ profiling; test system = mouse brain lysate; conditions = 1 µM, LYS1 site, added: ADP acyl phosphate probe; value = 19.2%
tested on = WNK1, WNK2 and WNK4 (human); test = probe labelling, KiNativ, refers to: IGDLGLATLkR peptide, activation loop; test system = PBMC lysate (human); conditions = 1 µM, added: ATP acyl-phosphate probe; value = 4.6%
tested on = SLK mouse; test = KiNativ profiling; test system = mouse brain lysate; conditions = 1 µM, LYS2 site, added: ATP acyl phosphate probe; value = 16%
tested on = AMPKa1 and AMPKa2 (mouse); test = probe labelling, KiNativ, refers to: VAVkILNR peptide, Lys1 site; test system = brain tissue lysate (mouse); conditions = 0.1 µM, added: ADP acyl-phosphate probe; value = 3.5%
test = inhibitor, KiNativ profiling, refers to: peptide VLGTGAYGkVFLVR; test system = human PBMC lysate; conditions = concentration not given, ATP loop site, added: ATP acyl-phosphate probe; value = 2.4%
